Experimental data pooled from the literature.
Each line is one published result; not all experiments were run side by side. Values joined by “and” are separate records of one study, mostly repeats; a detail may differ. ± marks the error that the study gave.

Under “cells with nuclear RelA”, CCS(=O)(=O)c1nc(C2CC2)cc(C(F)(F)F)n1 is recorded as 73.8% and 90.6% (HeLa Kyoto; RelA nuclear import, high content imaging; 0.5 µM, 3 h, together with: 1 µM PMA, 60 min).
With CC(/C=C/C(=O)NO)=C\[C@@H](C)C(=O)c1ccc(N(C)C)cc1 the viability was 0.696% (HBL-1; 1 µM, 120 h).
NC(=O)NOCCCCCCCCCCCCCCCC[P+](c1ccccc1)(c1ccccc1)c1ccccc1.O=C([O-])C(F)(F)F: “concentration at maximal effect” 0.4 µM (mouse CD4 T cells, reporter; IFNγ-YFP expression, flow cytometry; 144 h).
Under S6 phosphorylation, C=CC(=O)N1CCCN(C(=O)c2cc(Sc3cnc(NC(=O)C4CC4)s3)c(C)cc2OC)C[C@H]1C is recorded as “inhibited” (human CD4 T cells; flow cytometry; concentration not given, together with: anti-CD3/CD28 crosslinking).
CCCN1CCN(c2cccc(-c3cnccc3N3CCCC4(CCNC4=O)C3)c2)CC1 (centres unmarked): activity “inactive” (COLO 205; TCF/LEF reporter gene, inhibitor; concentration not given).
O=c1ncccn1[C@@H]1O[C@H](CO)[C@@H](O)[C@H]1O has a viability of 111% (HBL-1; 0.5 µM, 120 h).
The EC50 of CCCNC(=O)[C@H]1O[C@@H]1C(=O)N[C@H](C(=O)N1CCC[C@H]1C(=O)OC)[C@@H](C)CC is reported as 33 ± 8.7 µM (MDA-MB-231; cell viability, MTT; concentration not given, 72 h, irradiated 15 min up to 470 nm).
Cn1cc(-c2ccc(-c3cncc(Cl)c3N3CCC4(CCNC4=O)CC3)cc2)cn1: “fold change in expression” 1.14 (COLO 205; microarray, refers to: PDGFB; concentration not given, 6 h; baseline: untreated cells).
For CC(Nc1nc(N2CCCC2)nc2ccccc12)c1ccccc1 (centres unmarked), “cells with nuclear RelA” read 31.3% and 35.4% (HeLa Kyoto; RelA nuclear import, high content imaging; 50 µM, 3 h, together with: 1 µM PMA, 60 min).
For CCN(CC)C(=S)SSC(=S)N(CC)CC, the inhibition was 84.7% (BT-12; cell viability, MTT; 10 µM, 72 h).
For C=CCn1c(=O)c2cnc(Nc3ccc(N4CCN(C)CC4)cc3)nc2n1-c1ccc2c(n1)[C@@](O)(CC)CC2, “G2/M cells in subpopulation” read 64% (OVCAR-3; flow cytometry, refers to: pHH3-γH2Ax-; concentration not given).
For COC1=CC(c2cc3ccccc3[nH]2)=N/C1=C\c1[nH]c(C)cc1C, the inhibition was 94.1% (BT-12; cell viability, MTT; 10 µM, 72 h).
With Cl.Cl.O=S(=O)(c1cccc2cnccc12)N1CCCNCC1 the inhibition was -1% (HeLa expressing Ub(G76V)-GFP; Ub(G76V)-GFP degradation, cycloheximide chase; 12 µM).
For CCCCCCCCCCCCCCCc1cccc(O)c1C(=O)O, the viability was 106% (HBL-1; 1 µM, 120 h).
Nc1nc(S)nc(O)c1N=Cc1cn(-c2ccccc2)nc1-c1ccc(Cl)cc1 gave an ROS-positive cells of 19.6% (CCRF-CEM; carboxy-H2DCFDA flow cytometry; concentration not given, 18 h).
COc1cc2ncnc(Nc3ccc(Oc4ccccc4)cc3C)c2cc1OC.O=C(O)C(F)(F)F has a fractional effect of 0.145 (NCI-H2087 (BRAF L597V); 0.3 µM, together with: trametinib 0 nM).
CCCCc1oc2ccc(NS(C)(=O)=O)cc2c1C(=O)c1ccc(OCCCN(CCCC)CCCC)cc1 gave a fold change of 4 fold (human embryonic stem cell aggregates; mRNA level, microarray, refers to: LIX1; 0.5 µM, 120 h; baseline: untreated, up-regulated).
With Cc1ccc(CNC(=O)Cn2cc(CSc3nc4ccccc4[nH]3)nn2)cc1 the cytotoxicity was 89.6% (Caco-2; MTT; 250 ppm).
For CCS(=O)(=O)Nc1ccc2c(c1)/C(=C(/Nc1ccc(CN3CCCCC3)cc1)c1ccccc1)C(=O)N2, the inhibition was 93.6% (BT-12; cell viability, MTT; 10 µM, 72 h).
CC1=CC(=O)CC(C)(C)[C@@]1(O)/C=C/C(C)=C\C(=O)O has a viability of 65.1% (HBL-1; 1 µM, 120 h).
With COc1cc(/C=C/C(=O)N2CCC=CC2=O)cc(OC)c1OC the mRNA level was 76.1 ± 6.5% (MDA-MB-468; quantitative RT-PCR, refers to: NDUFS4; 30 µM, 8 h; baseline: untreated cells).
With O=C(CCCCCN1C(=O)c2cccc3cccc(c23)C1=O)NO the viability was 138% (HBL-1; 0.1 µM, 120 h).
CC/C(=N\NC(=O)NCc1cccc(O)c1)c1ccc(O)c(C)c1O gave a log ratio of 3.33 (SK-OV-3; gene expression, microarray, refers to: MYC; 10 µM, 24 h; baseline: DMSO).
For O=c1[nH][nH]c2nnc(-c3c(-c4ccccc4)nn4ccccc34)cc12, the inhibition was 25% (HeLa expressing Ub(G76V)-GFP; Ub(G76V)-GFP degradation, cycloheximide chase; 12 µM).
CSc1cccc(Nc2ncc3cc(-c4c(Cl)cccc4Cl)c(=O)n(C)c3n2)c1 has an ATP level of 96.5% (hiPSC cardiomyocytes; CellTiter-Glo; concentration not given, 24 h; baseline: vehicle).
O=C(C[C@@H](C(F)F)n1ccc(F)n1)N1CCC(O)(Cn2cnc3c(cnn3-c3ccc(F)cc3)c2=O)CC1: “cells in G2/M phase” 9.84% and 13.5% and 16.3% (CHP-212 resistant cells (pooled); PI flow cytometry; 0.1 µM, 24 h).
Under “early apoptotic cells”, COc1ccc(NC(=S)N/N=C/c2cccc3cc4ccccc4nc23)cc1 is recorded as 5.57% (HeLa; annexin V/PI; concentration not given, 48 h, dosed at IC12.5).
With O=C(/C=C/C=C/C=C/C1CCCCC1)NC1=C[C@@](O)(/C=C/C=C/C=C/C(=O)NC2=C(O)CCC2=O)[C@@H]2O[C@@H]2C1=O the GI50 was 20.3 µM (kp3; cell growth, inhibitor, CellTiter-Glo luminescence; 78 h; baseline: day 0 cell count).
For CC(C)[C@H](CO)Nc1nc(Nc2cc(N)cc(Cl)c2)c2ncn(C(C)C)c2n1, the inhibition was 31% (HeLa expressing Ub(G76V)-GFP; Ub(G76V)-GFP degradation, cycloheximide chase; 12 µM).
With c1ccc2c(CCNc3ccc(Nc4ccncc4)cc3)c[nH]c2c1 the inhibition was 93% (BT-12; cell viability, MTT; 10 µM, 72 h).
CC1(C)CN(CCCCC(=O)N[C@@H](CCC(=O)O)C(=O)N[C@@H](CCC(=O)O)C(=O)N[C@H](CCCCNC(=O)CCCCCCC(=O)NCCCC[C@H](NC(=O)N[C@@H](CCC(=O)O)C(=O)O)C(=O)O)C(=O)O)CC[N]2CC(C)(C)[S][Tc]2(=[O])[S]1 (some centres unmarked) [technetium-99m labelled] has a surface-bound activity of 2.21 ± 0.35 %AD/mg protein (LNCaP; 25 nM, 1 h, 4 °C).
With N#CC(c1ccnc(NCCc2cccnc2)n1)c1nc2ccccc2s1 (centres unmarked) the inhibition was 86% (HeLa expressing Ub(G76V)-GFP; Ub(G76V)-GFP degradation, cycloheximide chase; 12 µM).
For COc1cnc2cccc(N3CCc4c(cc(Cn5ccnc5C)cc4-c4cn(C)nc4C(F)(F)F)C3=O)c2c1, the EC50 was > 30 µM (ChaGo-K-1; cell growth, inhibitor; 120 h).
With Nc1[nH]nc2nc3ccccc3nc12 the inhibition was -17% (HeLa expressing Ub(G76V)-GFP; Ub(G76V)-GFP degradation, cycloheximide chase; 12 µM).
With Clc1ccc(-c2csc(NN=C3CCCC3)n2)cc1 the viability was 108% (HBL-1; 0.5 µM, 120 h).
CCn1cc(-c2cc(Cn3ccnc3)cc3c2CCN([C@H](c2cc(OC)ccn2)C2CC2)C3=O)c(C(F)(F)F)n1 gave an EC50 of 9.27 µM (HuTu80; cell growth, inhibitor; 120 h).
For Nc1ncnc2c1ncn2[C@@H]1C=C(CO)[C@@H](O)[C@H]1O, the viability was 68.8% (HBL-1; 0.5 µM, 120 h).
CC(C)(C)n1nc(Cc2cccc3ccccc23)c2c(N)ncnc21 has an inhibition of 42% (HeLa expressing Ub(G76V)-GFP; Ub(G76V)-GFP degradation, cycloheximide chase; 12 µM).
O=C(O)CCNc1cc(N2CCc3ccccc3CC2)nc(-c2ccccn2)n1 gave a viability of 113% (HBL-1; 0.5 µM, 120 h).
Cc1ccc(C(=O)N(CCCN)[C@@H](c2nc3cc(Cl)ccc3c(=O)n2Cc2ccccc2)C(C)C)cc1 has an inhibition of 95.7% (BT-12; cell viability, MTT; 10 µM, 72 h).
Under “pathway activation z-score”, Cn1cc(Nc2nccc(-c3ccc4c(c3)CN(C3COC3)CC[C@H]4NC(=O)c3cn(C(C)(C)C)nn3)n2)cn1 is recorded as -0.218 (mouse splenic B cells; refers to: Apoptosis signalling; 30 mg/kg, IgD-activated in vivo; baseline: vehicle, direction not given).
For Clc1nc(NCc2ccco2)c2[nH]cnc2n1, the ΔPSI was 0.244 (FD iPSC-derived cardiomyocytes; alternative splicing, RNA-seq, refers to: IDH3A exon chr15:78156907-78157162; unit not given; baseline: DMSO minus compound).
CCN(CCO)CCCC(C)Nc1ccnc2cc(Cl)ccc12 (centres unmarked) has an inhibition of 27 ± 23% (human PBMC; qRT-PCR, refers to: IFI6 mRNA; 1000 nM, together with: ssRNA).
O=c1[nH]nc(OCCCc2ccc(Cl)cc2)c(NCc2cccnc2)c1Br: “log2 fold change” 0.79 (HEK293T; RNA-seq, refers to: TRIB3 mRNA; 10 µM, 6 h; baseline: vehicle).
For C=Cc1c2[n-]c(c1C)/C=c1\[n-]/c(c(C)c1C=C)=C\c1[n-]c(c(CCC(=O)O)c1C)/C=c1\[n-]c(c(C)c1CCC(=O)O)=C2.[Sn+4], the fold change was 2.72 (SH-SY5Y; RNA-seq, refers to: FGF5 mRNA; 5 µM, 5 h; baseline: untreated cells).
The EC50 of CCn1cc(-c2cc(Cn3ccoc3=N)cc3c2CCN([C@@H](C)c2cc(OC)ccn2)C3=O)c(C(F)(F)F)n1 is reported as 0.0171 µM (SU-DHL-5; cell growth, inhibitor; 120 h).
O=C(Nc1nnc2n3c(nc(-c4ccc(Cl)cc4)c1-2)SCC3=O)c1ccccc1 has a cell growth of 89.2% (Hs-578T; SRB; 10 µM, NCI60 single-dose screen; baseline: untreated).

Excerpt of the above:
For O=c1[nH][nH]c2nnc(-c3c(-c4ccccc4)nn4ccccc34)cc12, the inhibition was 25% (HeLa expressing Ub(G76V)-GFP; Ub(G76V)-GFP degradation, cycloheximide chase; 12 µM).
CSc1cccc(Nc2ncc3cc(-c4c(Cl)cccc4Cl)c(=O)n(C)c3n2)c1 has an ATP level of 96.5% (hiPSC cardiomyocytes; CellTiter-Glo; concentration not given, 24 h; baseline: vehicle).
O=C(C[C@@H](C(F)F)n1ccc(F)n1)N1CCC(O)(Cn2cnc3c(cnn3-c3ccc(F)cc3)c2=O)CC1: “cells in G2/M phase” 9.84% and 13.5% and 16.3% (CHP-212 resistant cells (pooled); PI flow cytometry; 0.1 µM, 24 h).
Under “early apoptotic cells”, COc1ccc(NC(=S)N/N=C/c2cccc3cc4ccccc4nc23)cc1 is recorded as 5.57% (HeLa; annexin V/PI; concentration not given, 48 h, dosed at IC12.5).
With O=C(/C=C/C=C/C=C/C1CCCCC1)NC1=C[C@@](O)(/C=C/C=C/C=C/C(=O)NC2=C(O)CCC2=O)[C@@H]2O[C@@H]2C1=O the GI50 was 20.3 µM (kp3; cell growth, inhibitor, CellTiter-Glo luminescence; 78 h; baseline: day 0 cell count).
For CC(C)[C@H](CO)Nc1nc(Nc2cc(N)cc(Cl)c2)c2ncn(C(C)C)c2n1, the inhibition was 31% (HeLa expressing Ub(G76V)-GFP; Ub(G76V)-GFP degradation, cycloheximide chase; 12 µM).
With c1ccc2c(CCNc3ccc(Nc4ccncc4)cc3)c[nH]c2c1 the inhibition was 93% (BT-12; cell viability, MTT; 10 µM, 72 h).
